# Published values pooled from the literature.
# “And” joins repeats or separate records; there may be more than shown. ± marks the error that the study gave.
Compound,target or system,test,test system,setting,scale,endpoint,result
C[N+](C)(C)CCCn1c(=O)c2ccc3c(=O)n(CCC[N+](C)(C)C)c(=O)c4c5[nH]c6ccccc6[nH]c5c(c1=O)c2c34.[I-].[I-],human telomeric G-quadruplex,FRET melting,,"0.25 µM, K+ 100 mM",,ΔTm,8.5 ± 0.6 °C
CN1C(=O)/C(=C/c2ccccc2F)Sc2ccc(C(=O)N3CCN(Cc4ccc5c(c4)OCO5)CC3)cc21,NAADP receptor,"antagonist, fluo-3 fluorescence","Lytechinus pictus, egg homogenate","up to 6 µM, added: NAADP 30 to 50 nM",,NAADP-mediated Ca2+ release,inactive
O=S(=O)(NCCNC/C=C/c1ccc(Br)cc1)c1cccc2cnccc12,PKA,inhibitor,mouse zygotes,"20 µM, injection, hCG, 120 h post, early embryonic development",,embryos at morula stage,11.8% and 0% and 15%
C[C@H]1C[C@@H](N2C(=N)N[C@](C)(c3cccc(Nc4ccc(C5CC5)nc4)c3Cl)CC2=O)CCO1,neuronal sodium channel,"ion current, inhibitor, cell-based",,,,IC50,2820 nM
CN(C)CCCn1c(=O)c2cc(Br)c3c(=O)n(CCCN(C)C)c(=O)c4c5[nH]c6ncccc6[nH]c5c(c1=O)c2c34,human telomeric G-quadruplex,FRET melting,,"0.25 µM, K+ 100 mM",,ΔTm,1.5 ± 0.7 °C
O=c1c(O)c(-c2ccc(O)c(O)c2)oc2cc(O)cc(O)c12,bovine serum albumin,"fructose glycation, inhibitor",,"100 to 800 ppm, 21 days, added: fructose",,fluorescent AGE formation,decreased
CCCCCCCC(=O)OC[C@H](COP(=O)(O)O[C@@H]1[C@H](O)[C@H](O)[C@@H](OP(=O)(O)O)[C@H](OP(=O)(O)O)[C@H]1O)OC(=O)CCCCCCC,Kv7.2/Kv7.3(EEE) mutant channel,"channel open probability, activator, fitted PIP2 binding model",,model 1,relative to: channel without bound PIP2,efficacy factor E2,324
O=c1c(O)c(-c2ccc(O)cc2)oc2c(Br)c(O)c(Br)c(O)c12,bovine serum albumin,"methylglyoxal-mediated glycation, fluorescence",,concentration not given,,inhibition,72.2 ± 1.26%
CCCCCN,SAR11_0271 Candidatus Pelagibacter sp.,differential scanning fluorimetry,,concentration not given,higher = stronger binding,ΔTm,2.33 °C
CN(C)CCCn1c(=O)c2cc(Br)c3c(=O)n(CCCN(C)C)c(=O)c4c5[nH]c6ccc([N+](=O)[O-])cc6[nH]c5c(c1=O)c2c34,human telomeric G-quadruplex,FRET melting,,"0.25 µM, K+ 100 mM",,ΔTm,2 ± 0.1 °C
CN(C)CCC(=O)Nc1ccc([C@H]2[C@@H](F)[C@@H](F)C[C@@H](F)[C@H]2F)cc1,,liver microsome stability,cynomolgus liver microsomes,1 µM,,hepatic clearance,6.3 mL/min/kg
CN(C)CCCn1c(=O)c2cc(Br)c3c(=O)n(CCCN(C)C)c(=O)c4c5[nH]c6ccccc6[nH]c5c(c1=O)c2c34,human telomeric G-quadruplex,FRET melting,,"0.25 µM, K+ 100 mM",,ΔTm,3.5 ± 0.7 °C
CCn1c2ccccc2c2cc(NC(=O)CN3CCN(S(=O)(=O)c4ccc(OC)cc4)CC3)ccc21,NAADP receptor,"antagonist, fluo-3 fluorescence","Lytechinus pictus, egg homogenate","up to 6 µM, added: NAADP 30 to 50 nM",,NAADP-mediated Ca2+ release,inactive
COc1cccc(CNC(=O)C#Cc2cn(Cc3ccc(C(=O)O)cc3)c(=O)[nH]c2=O)c1,MMP-9,"inhibitor, colorimetric",,20 µM,,remaining MMP-9 activity,96 ± 11%
O=c1cc(-c2ccccc2)oc2cc(O)c(O)c(O)c12,bovine serum albumin,"methylglyoxal-mediated glycation, fluorescence",,concentration not given,,inhibition,71.9 ± 5.3%
O=C(/C=C(\O)C(=O)N1CCN(c2ccc(-n3cccc3)cc2)CC1)c1cc(Cc2cc(F)cc(F)c2)cn(Cc2ccccc2F)c1=O,"UGT1A1, UGT1A6, UGT1A9, UGT2B7 (human)","enzyme activity, competitive inhibitor",,added: 4-methylumbelliferone,,IC50,> 300000 nM
Oc1ccccc1-c1n[nH]cc1-c1ccnc2ccccc12,POM1 (Candida albicans),"kinase binding, MIB/MS competition",Candida albicans lysate,1 µM,relative to: DMSO,log2 fold change,-0.05
CC(C)NCC(O)c1ccc(O)c(O)c1 (stereo not shown),β2 adrenergic receptor E122Q (human),PRESTO-Tango luciferase,HTLA cells,1 nM,,β-arrestin2 recruitment,106 RLU and 116 RLU and 172 RLU and 130 RLU and 84.7 RLU and 124 RLU
COc1ccc(C2NC(C(=O)O)CC3c4ccccc4NC32)cc1CN1CCN(c2ccc(F)cc2)CC1 (stereo not shown),NAADP receptor,"antagonist, fluo-3 fluorescence","Lytechinus pictus, egg homogenate","up to 6 µM, added: NAADP 30 to 50 nM",,NAADP-mediated Ca2+ release,inactive
O=c1c(O)c(-c2ccc(O)cc2O)oc2cc(O)cc(O)c12,bovine serum albumin,"methylglyoxal-mediated glycation, fluorescence",,concentration not given,,inhibition,93.4 ± 4.6%
CC(=O)O[C@H]1C(=O)[C@@]2(C)[C@H]([C@H](OC(=O)c3ccccc3)[C@]3(O)C[C@H](OC(=O)[C@H](O)[C@@H](NC(=O)c4ccccc4)c4ccccc4)C(C)=C1C3(C)C)[C@]1(OC(C)=O)CO[C@@H]1C[C@@H]2O,tubulin (microtubules),"binding, radioligand saturation binding",J774.2,"60 min, 37 °C, 20% horse serum",,Kd,200 nM
c1coc(-c2n[nH]cc2-c2ccnc3ccccc23)c1,PBS2 (Candida albicans),"kinase binding, MIB/MS competition",Candida albicans lysate,1 µM,relative to: DMSO,log2 fold change,-0.27
COc1ccc(CNc2c(CO)cnc3c(C4CC4)cc(C#N)cc23)cn1,PDE4,inhibitor,,,,IC50,> 10000 nM
CN(C)CCCn1c(=O)c2ccc3c(=O)n(CCCN(C)C)c(=O)c4c5[nH]c6cc(C(=O)O)ccc6[nH]c5c(c1=O)c2c34,human telomeric G-quadruplex,FRET melting,,"0.25 µM, K+ 100 mM",,ΔTm,4.2 ± 0.3 °C
CN(C)c1ccc2nc3ccc(=[N+](C)C)cc-3sc2c1,"GABAA receptor, human, γ2-containing",inhibitor,HEK293 cells,,,IC50,19000 to 49000 nM
CCN1C(=O)c2ccccc2[C@H]1Nc1ccc(C(=O)N2CCN(C/C=C/c3ccccc3)CC2)cc1,NAADP receptor,"antagonist, fluo-3 fluorescence","Lytechinus pictus, egg homogenate","up to 6 µM, added: NAADP 30 to 50 nM",,NAADP-mediated Ca2+ release,inactive
CCCCCN1C[C@H](O)[C@@H](O)[C@H](O)[C@@H]1CO,GBA2 mouse,"enzyme activity, inhibitor",cell lysate,added: 4-MU-β-D-glucopyranoside,,IC50,6 nM
COc1ccc(S(=O)(=O)N2CCN([C@H](C)C(=O)Nc3ccccc3-c3ccccc3)CC2)cc1,NAADP receptor,"antagonist, fluo-3 fluorescence","Lytechinus pictus, egg homogenate","up to 6 µM, added: NAADP 30 to 50 nM",,NAADP-mediated Ca2+ release,inactive
O=C(c1ccc([C@H]2[C@@H](F)[C@@H](F)C[C@@H](F)[C@H]2F)cc1)N1CC(O)C1,,liver microsome stability,dog liver microsomes,1 µM,,hepatic clearance,7.3 mL/min/kg
Cc1ccc(-n2c(SCC(=O)N/N=C\c3cccc(Oc4ccccc4)c3)nnc2-c2ccc(Cl)cc2)cc1,NAADP receptor,"antagonist, fluo-3 fluorescence","Lytechinus pictus, egg homogenate","up to 6 µM, added: NAADP 30 to 50 nM",,NAADP-mediated Ca2+ release,inactive
O=C(O)[C@H](O)[C@@H](O)[C@H](O)[C@H](O)CO[C@H]1O[C@H](CO)[C@H](O)[C@H](O)[C@H]1O,SAR11_0271 Candidatus Pelagibacter sp.,differential scanning fluorimetry,,concentration not given,higher = stronger binding,ΔTm,3.02 °C
NC/C(=C\F)COc1cccc(Cn2c(=S)[nH]c(=O)c3[nH]cnc32)c1,AOC4 (dog),"substrate turnover, AOC4 oxidation",,"concentration not given, unit not given",relative to: DMSO control,enzyme activity,1.01 and 1.02 and 1.09 and 1.07 and 1.11
CN1C(=O)/C(=C/c2ccccc2Cl)Sc2ccc(C(=O)N3CCN(Cc4ccc5c(c4)OCO5)CC3)cc21,NAADP receptor,"antagonist, fluo-3 fluorescence","Lytechinus pictus, egg homogenate","up to 6 µM, added: NAADP 30 to 50 nM",,NAADP-mediated Ca2+ release,inactive
C=CC[C@@H]1/C=C(\C)C[C@H](C)C[C@H](OC)[C@H]2O[C@@](O)(C(=O)C(=O)N3CCCC[C@H]3C(=O)O[C@H](/C(C)=C/[C@@H]3CC[C@@H](O)[C@H](OC)C3)[C@H](C)[C@@H](O)CC1=O)[C@H](C)C[C@@H]2OC,sodium-chloride cotransporter NCC,response to hydrochlorothiazide,"Wistar Kyoto rats, male","ip, 0.5 mg/kg/day, day 20, 6 h excretion, added: hydrochlorothiazide 25 mg/kg ip",,natriuretic response,decreased

# Some of these lines once more:
Compound,target or system,test,test system,setting,scale,endpoint,result
Cc1ccc(-n2c(SCC(=O)N/N=C\c3cccc(Oc4ccccc4)c3)nnc2-c2ccc(Cl)cc2)cc1,NAADP receptor,"antagonist, fluo-3 fluorescence","Lytechinus pictus, egg homogenate","up to 6 µM, added: NAADP 30 to 50 nM",,NAADP-mediated Ca2+ release,inactive
O=C(O)[C@H](O)[C@@H](O)[C@H](O)[C@H](O)CO[C@H]1O[C@H](CO)[C@H](O)[C@H](O)[C@H]1O,SAR11_0271 Candidatus Pelagibacter sp.,differential scanning fluorimetry,,concentration not given,higher = stronger binding,ΔTm,3.02 °C
NC/C(=C\F)COc1cccc(Cn2c(=S)[nH]c(=O)c3[nH]cnc32)c1,AOC4 (dog),"substrate turnover, AOC4 oxidation",,"concentration not given, unit not given",relative to: DMSO control,enzyme activity,1.01 and 1.02 and 1.09 and 1.07 and 1.11
